Measurements of several laboratories.
Each line is one published result; not all experiments were run side by side. Numbers after ± are the reported error.
Nuclear receptor subfamily 2 group C member 2 ligand-binding domain: Nuclear receptor subfamily 2 group C member 2, ligand-binding domain (Homo sapiens, UniProt P49116)
Chain of UniProt P49116 (whole entry, looked up): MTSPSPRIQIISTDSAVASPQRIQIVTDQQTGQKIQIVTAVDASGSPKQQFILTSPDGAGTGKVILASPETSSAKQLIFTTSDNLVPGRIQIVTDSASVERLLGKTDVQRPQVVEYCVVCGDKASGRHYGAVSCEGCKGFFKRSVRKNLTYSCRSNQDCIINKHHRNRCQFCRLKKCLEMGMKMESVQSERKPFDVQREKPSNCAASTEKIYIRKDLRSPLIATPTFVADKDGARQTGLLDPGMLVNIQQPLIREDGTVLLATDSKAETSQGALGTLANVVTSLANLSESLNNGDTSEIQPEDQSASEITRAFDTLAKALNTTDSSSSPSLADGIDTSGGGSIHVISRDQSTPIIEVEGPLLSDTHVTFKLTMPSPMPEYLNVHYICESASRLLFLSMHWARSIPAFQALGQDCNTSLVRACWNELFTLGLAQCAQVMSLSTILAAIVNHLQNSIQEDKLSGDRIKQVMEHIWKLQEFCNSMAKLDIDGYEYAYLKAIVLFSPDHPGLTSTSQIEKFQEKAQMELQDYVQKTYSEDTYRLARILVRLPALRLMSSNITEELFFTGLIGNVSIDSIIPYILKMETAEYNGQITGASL
Chain of UniProt Q04206 (whole entry, looked up): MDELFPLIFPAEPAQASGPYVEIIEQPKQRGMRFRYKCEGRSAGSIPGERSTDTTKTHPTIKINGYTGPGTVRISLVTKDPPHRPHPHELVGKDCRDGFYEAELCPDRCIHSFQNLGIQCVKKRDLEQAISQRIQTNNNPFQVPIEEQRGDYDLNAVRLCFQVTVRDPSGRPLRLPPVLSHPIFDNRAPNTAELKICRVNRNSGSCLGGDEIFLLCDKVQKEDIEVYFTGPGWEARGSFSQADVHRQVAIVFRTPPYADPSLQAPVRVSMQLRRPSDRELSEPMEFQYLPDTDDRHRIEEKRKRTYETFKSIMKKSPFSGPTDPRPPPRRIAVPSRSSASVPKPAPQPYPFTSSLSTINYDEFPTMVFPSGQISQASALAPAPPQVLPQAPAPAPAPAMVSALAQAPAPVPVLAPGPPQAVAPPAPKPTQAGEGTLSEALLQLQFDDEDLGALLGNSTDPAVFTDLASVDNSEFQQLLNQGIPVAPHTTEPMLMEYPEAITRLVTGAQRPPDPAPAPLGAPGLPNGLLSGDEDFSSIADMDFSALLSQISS
Chain of UniProt P61981 (whole entry, looked up): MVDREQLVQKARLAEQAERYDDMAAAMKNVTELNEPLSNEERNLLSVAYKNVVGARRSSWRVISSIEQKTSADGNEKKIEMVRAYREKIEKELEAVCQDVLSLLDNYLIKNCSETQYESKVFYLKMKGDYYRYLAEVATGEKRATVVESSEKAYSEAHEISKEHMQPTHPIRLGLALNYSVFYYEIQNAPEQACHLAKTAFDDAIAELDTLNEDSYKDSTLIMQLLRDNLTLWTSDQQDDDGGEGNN

The plasma concentration of `COc1cc(CC(=O)O)ccc1OS(=O)(=O)O` is reported as 421 nM (human plasma; mean).
`Cc1cc(NC2CCN(C(=O)OC3CCN(C(=O)/C=C/CN(C)C)C3)CC2)n2ncc(C(C)C)c2n1` (stereo not drawn): “patients with adverse event” 6% (Phase I dose escalation CTCAE v4.0, measured: blood creatinine increased; patients with advanced solid tumours; dose not given, Total dosing any grade).
For `COc1cc([C@H]2Oc3cc([C@H]4Oc5cc(O)cc(O)c5C(=O)[C@@H]4O)ccc3O[C@@H]2CO)ccc1O`, the AUC(0-4h) was 0.92 µM·h (OATP1B1/1B3 humanized mice, plasma; oral gavage, 500 mg/kg silymarin, geometric mean).
`CO[C@H]1C[C@@H]2CC[C@@H](C)[C@@](O)(O2)C(=O)C(=O)N2CCCC[C@H]2C(=O)O[C@H]([C@H](C)C[C@@H]2CC[C@@H](OC(=O)NCCOCCOCCOCCOCCOCCOCCOCCOCCC(=O)N3CCc4cc(Cn5nc(-c6ccc7oc(N)nc7c6)c6c(N)ncnc65)ccc4C3)[C@H](OC)C2)C[C@@H](O)[C@H](C)/C=C(\C)[C@@H](O)[C@@H](OC)C(=O)[C@H](C)C[C@H](C)/C=C/C=C/C=C/1C` has a Cmax of 590 ng/mL (human, plasma; intravenous, 8 mg, cycle 1 day 15, arithmetic mean).
`CCCCCOc1ccc(/C=C\c2cccc(O)c2C(=O)O)cc1` gave a viability of 170% (OCI-Ly1; 1 µM, 120 h).
With `C[C@H]1CN(C(=O)CC#N)[C@]12CCN(c1ncnc3[nH]ccc13)C2` the t1/2 was 2.8 h (healthy adults, plasma; oral, 12 mg single dose, mean).
`Cc1noc(C)c1-c1cc(C(O)(c2ccccn2)c2ccccn2)c2nc(C3CC3)[nH]c2c1` gave an AUCtau of 9370 ng·h/mL (human, plasma; oral, 6 mg, cycle 1 day 8, monotherapy).
With `Oc1ccc(/C=C/c2cc(O)cc(O)c2)cc1` the viability was 150% (OCI-Ly1; 1 µM, 120 h).
With `CCN1/C(=C/C(C)=O)Sc2ccc(F)cc21` the heart rate was 116 ± 25 beats/min (cynomolgus monkey; oral, 30 mg/kg, 2 h post-dose).
For `O=C(O)c1ccc(O)c(O)c1O`, the plasma concentration was 114 nM (human plasma; median, both sexes).
`CCC[C@@H]1C[C@@H](C(=O)N[C@@H]([C@H]2O[C@H](SC)[C@H](O)[C@@H](O)[C@H]2O)[C@@H](C)O)N(C)C1` gave an amount permeated of 0.7 nmol (starch gel membrane permeability; Gram-negative envelope surrogate; 200 µM, 20 min, pH 7.4).
With `O=C(O)CCc1ccc(O)c(O)c1` the plasma concentration was 266 nM (human plasma; mean).
The Kd of `CN(CCOc1ccc(NS(C)(=O)=O)cc1)CCc1ccc(NS(C)(=O)=O)cc1` is reported as 77.2 pM (Nuclear receptor subfamily 2 group C member 2 ligand-binding domain; SPR imaging).
Under “urinary potassium excretion change”, `Cc1ccc([C@@H]2O[C@H](CO)[C@@H](O)[C@H](O)[C@H]2O)cc1Cc1ccc(-c2ccc(F)cc2)s1` is recorded as 3.25 mEq (Japanese type 2 diabetes patients; 400 mg, day 1, 24 h urine collection; baseline: baseline).
With `COc1ccnc(C(=O)NC(CO)C(=O)O)c1O` (racemic) the DT50 was 0.86 days (aerobic dark soil incubation; clay loam soil; 20 °C, persistence endpoint).
`COc1cc(OC)cc(C(=O)Oc2cc(C=O)ccc2[N+](=O)[O-])c1` gave an EC50 of greater than 1000 µM (YWHAG/RELA, phospho-Ser45 p65 peptide (Homo sapiens, UniProt P61981+Q04206); ternary complex formation, stabilizer, fluorescence anisotropy).
Under “subjects with TEAE”, `CC(C)(C(=O)N1CCOc2c(C#N)cncc2C1)C(F)F` is recorded as 0% (measured: phlebitis; human, both sexes; oral, 15 mg twice daily, 14 days, multiple ascending dose).
Under “accumulation ratio (AUC)”, `CCc1nc(C(N)=O)c(Nc2ccc(N3CCC(N4CCN(C)CC4)CC3)c(OC)c2)nc1NC1CCOCC1` is recorded as 5.57 (Japanese patients, plasma; oral, 20 mg, cycle 1 day 28, multiple doses, mean; baseline: single dose).
`Nc1nccs1` has a Kd of 1390 pM (Nuclear receptor subfamily 2 group C member 2 ligand-binding domain; SPR imaging).
Under “GGT increased grade ≥3”, `Cc1cc(C)c(CNC(=O)c2cc(Cl)c3c(c2C)O[C@@](C)([C@H]2CC[C@H](N(C)C)CC2)O3)c(=O)[nH]1` is recorded as 4.2% (human relapsed/refractory NHL; oral, 200 mg once daily, onset after cycle 1 day 1).
With `CC(C)NCCCC[C@@H]1NC(=O)[C@H](Cc2ccc(O)cc2)NC(=O)[C@H](Cc2ccccc2)NC(=O)CC[C@H](C(=O)N[C@@H](CCCCNC(C)C)C(=O)N[C@@H](CCCCNC(=O)[C@H](CCC(=O)O)NC(=O)[C@H](CCC(=O)O)NC(=O)[C@H](CCC(=O)O)NC(=O)CN2CCN(CC(=O)O)CCN(CC(=O)O)CCN(CC(=O)O)CC2)C(N)=O)NC(=O)CNC(=O)[C@H](Cc2ccc3ccccc3c2)NC(=O)[C@@H](CCCNC(=N)N)NC1=O` [gallium-68 labelled] the tissue uptake was 0.75 %ID/g (mouse with JeKo-1 xenograft, liver; intravenous, 1 h).
For `C=CCN1CC(=O)N2[C@@H](Cc3ccc(O)cc3F)C(=O)N(Cc3cccc(N4CC(N5CCN(CC)CC5)C4)n3)C[C@@H]2N1C(=O)NCc1ccccc1`, the treatment-related vomiting was 0% (advanced solid tumour patients; oral, 30 mg twice daily, any grade, dose-escalation).
`NC1(C(=O)N[C@@H](CCO)c2ccc(Cl)cc2)CCN(c2nc[nH]c3nccc2-3)CC1` — result for “incidence of weight decreased”: 0% (metastatic CRPC patients; 400 mg b.i.d., grade 3 to 4, treatment-related, added: enzalutamide 160 mg daily).
For `Cc1cc(-c2nccc3c2ccn3CC(=O)Nc2ccc(-c3cnccn3)cn2)ccn1`, “foreign body sensation” read 0% (human; 20 mg once daily, multiple ascending dose).

Repeated from above:
With `CCN1/C(=C/C(C)=O)Sc2ccc(F)cc21` the heart rate was 116 ± 25 beats/min (cynomolgus monkey; oral, 30 mg/kg, 2 h post-dose).
For `O=C(O)c1ccc(O)c(O)c1O`, the plasma concentration was 114 nM (human plasma; median, both sexes).
`CCC[C@@H]1C[C@@H](C(=O)N[C@@H]([C@H]2O[C@H](SC)[C@H](O)[C@@H](O)[C@H]2O)[C@@H](C)O)N(C)C1` gave an amount permeated of 0.7 nmol (starch gel membrane permeability; Gram-negative envelope surrogate; 200 µM, 20 min, pH 7.4).
With `O=C(O)CCc1ccc(O)c(O)c1` the plasma concentration was 266 nM (human plasma; mean).
